Assay results pooled from the literature.
Compare with care: the assays were run in different laboratories. Values after ≈ are worked out from the molar mass of the structure shown.
Organism: Escherichia coli

For `CC[C@H](C)[C@H](NC(=O)[C@H](CO)NC(=O)[C@H](CO)NC(=O)[C@H](Cc1ccccc1)NC(=O)CN)C(=O)N[C@@H](Cc1ccccc1)C(=O)N[C@@H](CCCNC(=N)N)C(N)=O`, the MBC was greater than 128 µM (ATCC 8739; with: 6 µM NH4Cl).
The survival of `CC[C@H](C)[C@H](NC(=O)[C@H](CCN)NC(=O)[C@H](Cc1ccccc1)NC(=O)[C@H](Cc1ccccc1)NC(=O)CCCCCOC(=O)c1cn(C2CC2)c2cc(N3CCNCC3)c(F)cc2c1=O)C(=O)N[C@@H](CCN)C(=O)N[C@H](Cc1ccccc1)C(=O)N[C@@H](CC(C)C)C(=O)N[C@@H](CCN)C(=O)N[C@@H](C(=O)N[C@@H](CC(C)C)C(=O)N[C@@H](CO)C(N)=O)C(C)C` is reported as 20.6% (6.25 µM, 12 h, 37 °C).
`CCCCCCCC(=O)NCC(=O)N[C@@H](CC(C)C)C(=O)N[C@@H](CC(C)C)C(=O)N[C@@H](CCCCN)C(=O)N[C@@H](CCCNC(=N)N)C(=O)N[C@H](C(=O)N[C@@H](CCCCN)C(=O)N[C@H](C(=O)N[C@@H](CC(C)C)C(=O)N[C@@H](CC(C)C)C(N)=O)[C@@H](C)O)[C@@H](C)CC` gave an FIC index of 0.5 (checkerboard; ATCC 25922; with: polymyxin B).
`C[C@]1(COC(=O)c2ccccc2O)[C@H](C(=O)O)N2C(=O)/C(=C/c3ccccn3)[C@H]2S1(=O)=O`: “MIC of ampicillin” 256 µg/mL (broth microdilution; MG1655 expressing CTX-M-14; 16 µg/mL, 20 h, 37 °C).
For `C[C@@](O)(C(F)F)[C@H](NC(=O)c1ccc(C#CC#CC2CC2)cc1)C(=O)NO`, the ED50 was 3.6 mg/kg per dose (survival; NDM-1 producing, CD-1 mice, infection model; IV first dose then IP every 12 h, 5 days, first dose 2 h post-infection).
`CCCC(=O)NCC(=O)N[C@@H](CC(C)C)C(=O)N[C@@H](CC(C)C)C(=O)N[C@@H](CCCCN)C(=O)N[C@@H](CCCNC(=N)N)C(=O)N[C@H](C(=O)N[C@@H](CCCCN)C(=O)N[C@H](C(=O)N[C@@H](CC(C)C)C(=O)N[C@@H](CC(C)C)C(=O)NCCCC[C@H](NC(=O)[C@H](CC(C)C)NC(=O)[C@H](CC(C)C)NC(=O)[C@@H](NC(=O)[C@H](CCCCN)NC(=O)[C@@H](NC(=O)[C@H](CCCNC(=N)N)NC(=O)[C@H](CCCCN)NC(=O)[C@H](CC(C)C)NC(=O)[C@H](CC(C)C)NC(=O)CNC(=O)CCC)[C@@H](C)CC)[C@@H](C)O)C(=O)NCCCC[C@H](NC(=O)[C@H](CCCCNC(=O)[C@H](CC(C)C)NC(=O)[C@H](CC(C)C)NC(=O)[C@@H](NC(=O)[C@H](CCCCN)NC(=O)[C@@H](NC(=O)[C@H](CCCNC(=N)N)NC(=O)[C@H](CCCCN)NC(=O)[C@H](CC(C)C)NC(=O)[C@H](CC(C)C)NC(=O)CNC(=O)CCC)[C@@H](C)CC)[C@@H](C)O)NC(=O)[C@H](CC(C)C)NC(=O)[C@H](CC(C)C)NC(=O)[C@@H](NC(=O)[C@H](CCCCN)NC(=O)[C@@H](NC(=O)[C@H](CCCNC(=N)N)NC(=O)[C@H](CCCCN)NC(=O)[C@H](CC(C)C)NC(=O)[C@H](CC(C)C)NC(=O)CNC(=O)CCC)[C@@H](C)CC)[C@@H](C)O)C(N)=O)[C@@H](C)O)[C@@H](C)CC` has an FIC index of 0.125 (checkerboard; ATCC 25922; with: rifampicin).
With `CC[C@H](C)[C@H](NC(=O)[C@H](CCCCN)NC(=O)[C@H](CCCCN)NC(=O)[C@H](CC(C)C)NC(=O)[C@H](CCCCN)NC(=O)[C@H](CCC(=O)O)NC(=O)[C@H](CCCCN)NC(=O)[C@@H](NC(=O)[C@H](CCCCN)NC(=O)[C@H](CC(N)=O)NC(=O)[C@H](CCCNC(=N)N)NC(=O)[C@H](Cc1ccccc1)NC(=O)[C@H](CCCCN)NC(=O)[C@H](CCCNC(=N)N)NC(=O)[C@H](CC(C)C)NC(=O)[C@H](CCCNC(=N)N)NC(=O)[C@H](CCCCN)NC(=O)[C@H](CCCNC(=N)N)NC(=O)[C@H](CC(C)C)NC(=O)[C@@H](N)CCCNC(=N)N)[C@@H](C)CC)C(=O)NCC(=O)N[C@@H](CCC(N)=O)C(=O)N[C@@H](CCCCN)C(=O)N[C@H](C(=O)N[C@@H](CCC(N)=O)C(=O)NCC(=O)N[C@@H](Cc1ccccc1)C(=O)N[C@H](C(=O)N1CCC[C@H]1C(=O)N[C@@H](CCCCN)C(=O)N[C@@H](CC(C)C)C(=O)N[C@@H](CCC(N)=O)C(=O)N1CCC[C@H]1C(=O)N[C@@H](CO)C(=O)N[C@@H](CCCCN)C(=O)N[C@@H](CCC(N)=O)C(=O)N[C@@H](CO)C(=O)O)C(C)C)[C@@H](C)CC` the lethal concentration was 3 µM (inhibition zone; JM109).
`CCCCCCCCCCCCCCC(=O)N[C@@H](CCCCN)C(=O)N[C@@H](CCCCN)C(=O)N[C@@H](CCCCN)C(=O)N[C@@H](CCCCN)C(N)=O` has an MBC of 32 µg/mL (K12).
With `O=c1c(O)ccc(Br)cc1O` the MIC80 was 29.6 µM (≈ 6.42 µg/mL).
`CC[C@H](C)[C@H](NC(=O)[C@H](CCCNC(=N)N)NC(=O)[C@H](CCCCN)NC(=O)[C@H](CC(C)C)NC(=O)[C@H](CC(C)C)NC(=O)CN)C(=O)N[C@@H](CCCCN)C(=O)N[C@H](C(=O)N[C@@H](CC(C)C)C(=O)N[C@@H](CC(C)C)C(=O)NCCCC[C@H](NC(=O)[C@H](CC(C)C)NC(=O)[C@H](CC(C)C)NC(=O)[C@@H](NC(=O)[C@H](CCCCN)NC(=O)[C@@H](NC(=O)[C@H](CCCNC(=N)N)NC(=O)[C@H](CCCCN)NC(=O)[C@H](CC(C)C)NC(=O)[C@H](CC(C)C)NC(=O)CN)[C@@H](C)CC)[C@@H](C)O)C(=O)NCCCC[C@H](NC(=O)[C@H](CCCCNC(=O)[C@H](CC(C)C)NC(=O)[C@H](CC(C)C)NC(=O)[C@@H](NC(=O)[C@H](CCCCN)NC(=O)[C@@H](NC(=O)[C@H](CCCNC(=N)N)NC(=O)[C@H](CCCCN)NC(=O)[C@H](CC(C)C)NC(=O)[C@H](CC(C)C)NC(=O)CN)[C@@H](C)CC)[C@@H](C)O)NC(=O)[C@H](CC(C)C)NC(=O)[C@H](CC(C)C)NC(=O)[C@@H](NC(=O)[C@H](CCCCN)NC(=O)[C@@H](NC(=O)[C@H](CCCNC(=N)N)NC(=O)[C@H](CCCCN)NC(=O)[C@H](CC(C)C)NC(=O)[C@H](CC(C)C)NC(=O)CN)[C@@H](C)CC)[C@@H](C)O)C(N)=O)[C@@H](C)O` has an FIC index of 0.125 (checkerboard; ATCC 25922; with: polymyxin B).
`CC(C)C1=CC2=CCC3C(C)(C(=O)OCCC[N+](C)(C)C)CCCC3(C)C2CC1` (stereo not drawn) has a selectivity index of 10 (ATCC 25922; reference: HC50 over MIC).
For `CC[C@H](C)[C@H](NC(=O)[C@H](CCCCN)NC(=O)[C@H](CCCCN)NC(=O)[C@H](CC(C)C)NC(=O)[C@H](CCCCN)NC(=O)[C@H](CCC(=O)O)NC(=O)[C@H](CCCCN)NC(=O)[C@@H](NC(=O)[C@H](CCCCN)NC(=O)[C@H](CC(N)=O)NC(=O)[C@H](CCCNC(=N)N)NC(=O)[C@H](Cc1ccccc1)NC(=O)[C@H](CCCCN)NC(=O)[C@H](CCCNC(=N)N)NC(=O)[C@H](CC(C)C)NC(=O)[C@H](CCCNC(=N)N)NC(=O)[C@H](CCCCN)NC(=O)[C@H](CCCNC(=N)N)NC(=O)[C@H](CC(C)C)NC(=O)[C@@H](N)CC(C)C)[C@@H](C)CC)C(=O)NCC(=O)N[C@@H](CCC(N)=O)C(=O)N[C@@H](CCCCN)C(=O)N[C@H](C(=O)N[C@@H](CCC(N)=O)C(=O)NCC(=O)N[C@@H](Cc1ccccc1)C(=O)N[C@H](C(=O)N1CCC[C@H]1C(=O)N[C@@H](CCCCN)C(=O)N[C@@H](CC(C)C)C(=O)N[C@H](C(=O)N1CCC[C@H]1C(=O)N[C@@H](CCCNC(=N)N)C(=O)N[C@H](C(=O)N[C@@H](CCC(=O)O)C(=O)N[C@@H](CO)C(=O)O)[C@@H](C)O)C(C)C)C(C)C)[C@@H](C)CC`, the lethal concentration was 1.93 µM (inhibition zone; TOP10).

A few entries again:
`CCCCCCCCCCCCCCC(=O)N[C@@H](CCCCN)C(=O)N[C@@H](CCCCN)C(=O)N[C@@H](CCCCN)C(=O)N[C@@H](CCCCN)C(N)=O` has an MBC of 32 µg/mL (K12).
`CC[C@H](C)[C@H](NC(=O)[C@H](CCCNC(=N)N)NC(=O)[C@H](CCCCN)NC(=O)[C@H](CC(C)C)NC(=O)[C@H](CC(C)C)NC(=O)CN)C(=O)N[C@@H](CCCCN)C(=O)N[C@H](C(=O)N[C@@H](CC(C)C)C(=O)N[C@@H](CC(C)C)C(=O)NCCCC[C@H](NC(=O)[C@H](CC(C)C)NC(=O)[C@H](CC(C)C)NC(=O)[C@@H](NC(=O)[C@H](CCCCN)NC(=O)[C@@H](NC(=O)[C@H](CCCNC(=N)N)NC(=O)[C@H](CCCCN)NC(=O)[C@H](CC(C)C)NC(=O)[C@H](CC(C)C)NC(=O)CN)[C@@H](C)CC)[C@@H](C)O)C(=O)NCCCC[C@H](NC(=O)[C@H](CCCCNC(=O)[C@H](CC(C)C)NC(=O)[C@H](CC(C)C)NC(=O)[C@@H](NC(=O)[C@H](CCCCN)NC(=O)[C@@H](NC(=O)[C@H](CCCNC(=N)N)NC(=O)[C@H](CCCCN)NC(=O)[C@H](CC(C)C)NC(=O)[C@H](CC(C)C)NC(=O)CN)[C@@H](C)CC)[C@@H](C)O)NC(=O)[C@H](CC(C)C)NC(=O)[C@H](CC(C)C)NC(=O)[C@@H](NC(=O)[C@H](CCCCN)NC(=O)[C@@H](NC(=O)[C@H](CCCNC(=N)N)NC(=O)[C@H](CCCCN)NC(=O)[C@H](CC(C)C)NC(=O)[C@H](CC(C)C)NC(=O)CN)[C@@H](C)CC)[C@@H](C)O)C(N)=O)[C@@H](C)O` has an FIC index of 0.125 (checkerboard; ATCC 25922; with: polymyxin B).
